Results from different studies.
Every numbered part comes from another study and shows a few of its results, in no order. Changes are numbered by the printed parent chain.

Set 1 — method: protein-binding microarray; form: double-stranded DNA, one strand shown; matrix: in vitro; concentration: not given; reading: higher = stronger binding; measurement: E-score
Target: Protein C-ets-1 (ETS1, Homo sapiens, UniProt P14921, residues 1-441, K379A, full length assumed)
Notes: k-mer, scored over probes, only values ≥0.25
Target sequence (chain): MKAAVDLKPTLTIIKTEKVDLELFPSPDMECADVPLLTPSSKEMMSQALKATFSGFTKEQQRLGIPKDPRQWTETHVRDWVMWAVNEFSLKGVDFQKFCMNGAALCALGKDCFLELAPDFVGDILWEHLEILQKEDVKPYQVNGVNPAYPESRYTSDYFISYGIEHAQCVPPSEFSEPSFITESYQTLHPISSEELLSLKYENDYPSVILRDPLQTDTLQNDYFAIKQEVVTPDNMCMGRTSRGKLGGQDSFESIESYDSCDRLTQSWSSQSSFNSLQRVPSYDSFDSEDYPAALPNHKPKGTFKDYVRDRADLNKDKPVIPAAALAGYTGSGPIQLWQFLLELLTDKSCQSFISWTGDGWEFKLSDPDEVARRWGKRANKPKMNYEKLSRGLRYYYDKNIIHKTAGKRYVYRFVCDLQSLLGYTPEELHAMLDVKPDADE
AGTTACCG: 0.285
ACGGTACG: 0.307
CCGCCGGC: 0.345
ATTACCGG: 0.373
ATGACAAC: 0.253
ACCGGTCT: 0.361
CGCGTGTC: 0.26
GTGGGGTA: 0.324
ATGTAACA: 0.294
ATACCGGA: 0.397
CCGGAAAA: 0.378
GTTCGTCA: 0.308
AATATCCG: 0.264
CCCGGTAG: 0.342

Set 2 — target: CCND2, cyclin fold, Cln2 fusion (human); method: yeast growth competition, sequencing; matrix: yeast; notes: weak parent motif; reference: not given; reading: higher = stronger binding; measurement: normalised enrichment score
Starting sequence: GMNC docking peptide (human); KNAKRNLSSEFAN; partner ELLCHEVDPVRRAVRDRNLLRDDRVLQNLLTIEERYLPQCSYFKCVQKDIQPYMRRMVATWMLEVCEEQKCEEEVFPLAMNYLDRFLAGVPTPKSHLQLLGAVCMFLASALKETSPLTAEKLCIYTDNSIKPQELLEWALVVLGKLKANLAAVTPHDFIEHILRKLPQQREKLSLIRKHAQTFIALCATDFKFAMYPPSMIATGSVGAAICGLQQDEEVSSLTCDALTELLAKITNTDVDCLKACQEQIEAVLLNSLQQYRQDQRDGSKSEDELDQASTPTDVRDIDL
A12E: 0.441
N2S: 0.855
N6H: -0.313
E10N: -0.311
A3N: 0.273
F11Q: 0.122
F11N: -0.495
R5M: 0.271
A3D: 0.0296
E10D: -0.334
E10V: 0.0535
S9L: 0.452
A3C: 0.391
E10P: -0.258
S8P: 0.0676
A3Q: 0.0588
K4I: 0.778
N2T: 0.621
R5H: 0.0331
N6Y: -0.782
R5I: 0.231
S9H: 0.234
L7D: 0.592
F11L: 0.184
A3K: 0.196

Set 3 — target: FOSL2, bZIP domain (human); method: DHFR protein complementation; matrix: yeast; reference: wild-type JUN-FOS pair; reading: higher = stronger binding; measurement: binding fitness
Notes: single substitutions, most at no-binding floor
Starting sequence: JUN, bZIP domain (human); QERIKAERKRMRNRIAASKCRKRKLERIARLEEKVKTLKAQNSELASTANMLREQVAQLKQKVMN; partner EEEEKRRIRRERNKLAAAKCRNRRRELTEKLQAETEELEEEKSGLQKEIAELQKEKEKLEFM
V35G: -0.95 natural log
E32P: -0.95 natural log
E44A: 0.0346 natural log
R30F: 0.0939 natural log
L31C: -0.353 natural log
A57W: -0.0814 natural log
R30T: 0.224 natural log
A29S: 0.025 natural log
E32L: 0.0379 natural log
V35R: -0.116 natural log
L31H: -0.382 natural log
K36H: 0.00905 natural log
L31K: -0.621 natural log
A46M: 0.0539 natural log

Further values, each from its own experiment
PhoQ, residues 284 288 289 292 302 303 TVTVVA  fold induction (PhoP, residues 12 14 15 18 19 SPWRL (Escherichia coli, UniProt P23836); Sort-seq, measured: YFP reporter; E. coli; PhoQ-PhoP variant library, added: 10 µM Mg2+; reference: high Mg2+ state, higher = stronger signaling): 6.57
